Measurements collected from several papers.
Protocols differ between the studies behind these lines. Numbers after ± are the reported error.
Cell line: HeLa

Structure (SMILES) | assay | conditions | CC50 [µM]
CC[C@H](C)[C@@H]1NC(=O)[C@H](C)NC(=O)[C@H](C)NC(=O)[C@H]([C@@H](C)O)NC(=O)[C@H](Cc2ccccc2)NC(=O)[C@@H]2CSSC[C@@H]3NC(=O)[C@H](C(C)C)NC(=O)[C@H](C)NC(=O)[C@H](CO)NC(=O)[C@H](CCCCN)NC(=O)[C@@H]4CSSC[C@H](NC(=O)[C@H](CO)NC(=O)[C@H](CCC(=O)O)NC(=O)CNC(=O)[C@H](CSSC[C@H](NC(=O)CNC1=O)C(=O)N[C@@H](CO)C(=O)N4)NC(=O)[C@@H]1CCCN1C(=O)[C@H](Cc1ccccc1)NC(=O)CNC(=O)[C@H](CC(N)=O)NC(=O)[C@H](CCCCN)NC(=O)[C@H](Cc1ccc(O)cc1)NC3=O)C(=O)N[C@@H](C(C)C)C(=O)N[C@@H](Cc1ccc(O)cc1)C(=O)N[C@@H](CC(C)C)C(=O)N1CCC[C@H]1C(=O)N2 | resazurin | 24 h | 1.24 ± 0.06
CCC[C@H](NC(=O)[C@H](CC(C)C)NC(=O)OCc1ccccc1)C(=O)C(=O)NCc1ccccn1 | – | 6 days | 60.3 ± 8.3
CCOC(=O)CCCCCCNC1c2ccccc2N(C)S(=O)(=O)c2ccsc21 (centres unmarked) | – | – | 96
CSCC[C@@H](C=O)NC(=O)[C@H](CC(C)C)NC(=O)[C@H](CC(C)C)NC(C)=O | – | 6 days | > 100
CC[C@H](C)[C@@H]1NC(=O)[C@H](CCCCN)NC(=O)[C@H](CCCCN)NC(=O)[C@H](Cc2ccc(O)cc2)NC(=O)[C@H](CC(C)C)NC(=O)[C@@H]2CCCN2C(=O)[C@H](C)NC(=O)CNC(=O)CNC(=O)[C@H](CO)NC(=O)CNC(=O)CNC(=O)[C@H](CO)NC(=O)[C@H]([C@@H](C)O)NC(=O)[C@H](CC(C)C)NC(=O)[C@H](CC(C)C)NC(=O)[C@H](C)NC(=O)[C@H](Cc2c[nH]c3ccccc23)NC(=O)[C@H](Cc2ccc(O)cc2)NC(=O)[C@H](Cc2c[nH]cn2)NC(=O)[C@H](CCC(=O)O)NC(=O)[C@H](Cc2ccccc2)NC(=O)[C@H]([C@@H](C)O)NC(=O)[C@H](CC(C)C)NC(=O)[C@@H]2CCCN2C(=O)CNC(=O)CNC(=O)CSC[C@@H](C(N)=O)NC(=O)[C@H](CC(C)C)NC(=O)[C@H](CCCCN)NC(=O)[C@H](CCCCN)NC(=O)[C@H]([C@@H](C)CC)NC1=O | cell viability, resazurin | 24 h | > 32
O=C(CNCCC1CCN(Cc2ccccc2)CC1)Nn1c2ccccc2c2ccccc21 | – | – | 7
CC[C@H](C)[C@@H]1NC(=O)[C@H](C)NC(=O)[C@H](C)NC(=O)[C@H]([C@@H](C)O)NC(=O)[C@H](Cc2ccccc2)NC(=O)[C@@H]2CSSC[C@@H]3NC(=O)[C@H](C(C)C)NC(=O)[C@H](CCCCN)NC(=O)[C@H](CO)NC(=O)[C@H](CCCCN)NC(=O)[C@@H]4CSSC[C@H](NC(=O)[C@H](CO)NC(=O)[C@H](CCC(=O)O)NC(=O)[C@H](C)NC(=O)[C@H](CSSC[C@H](NC(=O)CNC1=O)C(=O)N[C@@H](CO)C(=O)N4)NC(=O)[C@@H]1CCCN1C(=O)[C@H](Cc1ccccc1)NC(=O)CNC(=O)[C@H](CC(N)=O)NC(=O)[C@H](CCCCN)NC(=O)[C@H](Cc1ccc(O)cc1)NC3=O)C(=O)N[C@@H](C(C)C)C(=O)N[C@@H](Cc1ccc(O)cc1)C(=O)N[C@@H](CC(C)C)C(=O)N1CCC[C@H]1C(=O)N2 | resazurin | 24 h | 1.29 ± 0.06
CC[C@H](C)[C@@H]1NC(=O)[C@H](CCCCN)NC(=O)[C@H](CCCCN)NC(=O)[C@H](Cc2ccc(O)cc2)NC(=O)[C@H](CC(C)C)NC(=O)[C@@H]2CCCN2C(=O)[C@H](C)NC(=O)CNC(=O)CNC(=O)[C@H](CO)NC(=O)CNC(=O)CNC(=O)[C@H](CO)NC(=O)[C@H](CCC(=O)O)NC(=O)[C@H](CC(C)C)NC(=O)[C@H](CC(C)C)NC(=O)[C@H](CCCCN)NC(=O)[C@H](CCCCN)NC(=O)[C@H]([C@@H](C)CC)NC(=O)[C@H]([C@@H](C)CC)NC(=O)[C@H](CCCCN)NC(=O)[C@H](CCCCN)NC(=O)[C@H](Cc2ccc(O)cc2)NC(=O)[C@H](CC(C)C)NC(=O)[C@@H]2CCCN2C(=O)CNC(=O)CNC(=O)CSC[C@@H](C(N)=O)NC(=O)[C@H](CC(C)C)NC(=O)[C@H](CCCCN)NC(=O)[C@H](CCCCN)NC(=O)[C@H]([C@@H](C)CC)NC1=O | cell viability, resazurin | 24 h | 20.7 ± 2.2

Repeated from above:
Structure (SMILES) | assay | conditions | CC50 [µM]
CC[C@H](C)[C@@H]1NC(=O)[C@H](C)NC(=O)[C@H](C)NC(=O)[C@H]([C@@H](C)O)NC(=O)[C@H](Cc2ccccc2)NC(=O)[C@@H]2CSSC[C@@H]3NC(=O)[C@H](C(C)C)NC(=O)[C@H](CCCCN)NC(=O)[C@H](CO)NC(=O)[C@H](CCCCN)NC(=O)[C@@H]4CSSC[C@H](NC(=O)[C@H](CO)NC(=O)[C@H](CCC(=O)O)NC(=O)[C@H](C)NC(=O)[C@H](CSSC[C@H](NC(=O)CNC1=O)C(=O)N[C@@H](CO)C(=O)N4)NC(=O)[C@@H]1CCCN1C(=O)[C@H](Cc1ccccc1)NC(=O)CNC(=O)[C@H](CC(N)=O)NC(=O)[C@H](CCCCN)NC(=O)[C@H](Cc1ccc(O)cc1)NC3=O)C(=O)N[C@@H](C(C)C)C(=O)N[C@@H](Cc1ccc(O)cc1)C(=O)N[C@@H](CC(C)C)C(=O)N1CCC[C@H]1C(=O)N2 | resazurin | 24 h | 1.29 ± 0.06
